Published values from different studies.
Each numbered part is a random draw from the data of one study; scales do not carry over between parts. Positions count from the first letter of the parent shown.

Series 1 — method: universal PBM; molecule type: double-stranded DNA, one strand shown; medium: in vitro; tested at: 600 nM; reading: higher = stronger binding; quantity: E-score
Target: Sal-like protein 4, full length isoform A (SALL4, Homo sapiens, UniProt Q9UJQ4, residues 1-1053)
Chain of UniProt Q9UJQ4 (whole entry, looked up): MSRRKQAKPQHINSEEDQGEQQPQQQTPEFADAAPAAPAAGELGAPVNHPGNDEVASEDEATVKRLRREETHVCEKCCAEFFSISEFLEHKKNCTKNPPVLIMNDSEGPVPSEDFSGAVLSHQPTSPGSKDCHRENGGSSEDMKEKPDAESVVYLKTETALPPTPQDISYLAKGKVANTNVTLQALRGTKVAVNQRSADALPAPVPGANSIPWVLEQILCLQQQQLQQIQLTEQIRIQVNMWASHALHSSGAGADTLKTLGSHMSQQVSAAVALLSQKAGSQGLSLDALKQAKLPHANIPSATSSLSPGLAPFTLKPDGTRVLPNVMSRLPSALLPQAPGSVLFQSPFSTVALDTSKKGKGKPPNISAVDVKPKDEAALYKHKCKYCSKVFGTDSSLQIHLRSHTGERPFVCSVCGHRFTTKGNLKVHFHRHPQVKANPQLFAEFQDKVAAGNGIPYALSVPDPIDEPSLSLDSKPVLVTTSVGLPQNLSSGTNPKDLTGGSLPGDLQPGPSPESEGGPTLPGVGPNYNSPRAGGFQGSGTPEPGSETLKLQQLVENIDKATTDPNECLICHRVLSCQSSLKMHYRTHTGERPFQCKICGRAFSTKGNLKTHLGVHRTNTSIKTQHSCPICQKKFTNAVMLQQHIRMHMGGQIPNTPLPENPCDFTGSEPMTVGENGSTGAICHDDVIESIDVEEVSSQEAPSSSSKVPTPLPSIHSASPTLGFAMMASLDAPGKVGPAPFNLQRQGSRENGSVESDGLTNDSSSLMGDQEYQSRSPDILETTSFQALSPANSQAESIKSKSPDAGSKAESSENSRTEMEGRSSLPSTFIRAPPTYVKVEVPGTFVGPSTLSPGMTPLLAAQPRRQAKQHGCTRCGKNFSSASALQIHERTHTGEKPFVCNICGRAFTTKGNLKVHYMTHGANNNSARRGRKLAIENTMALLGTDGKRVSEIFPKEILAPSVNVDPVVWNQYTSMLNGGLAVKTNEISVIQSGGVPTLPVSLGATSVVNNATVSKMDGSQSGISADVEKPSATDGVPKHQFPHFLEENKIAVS
Setting: 8-mer, flanks averaged, mean of replicates
CTTGCAAA: 0.176
AGTGTCTA: 0.105
AATTAAGT: 0.31
AGTGGGGG: -0.2
CGCTAAGC: -0.216
CAGTACCA: -0.104
CAACTCTA: 0.00398
CTCGGGTC: -0.202
CATCTAAA: 0.14
TCGTGTAA: 0.104
ACCGCGTA: -0.125
GCCACGAC: -0.106
CGGGAAAG: -0.294
TAGCCCGA: -0.198
CACACCAG: -0.109
GGCACCAC: -0.316
CTAGTCAC: 0.0759
AGGGATTA: 0.111
CCGAAACA: 0.145
ACATAAAC: 0.33
GGTGGATA: 0.0565
ATCGCGAG: 0.0437
CATCCGGA: -0.224
GCCGAGGC: -0.281
CCCCCACA: -0.128

Series 2 — method: RNA Bind-n-Seq; molecule type: RNA; medium: in vitro; tested at: 365 nM; reference: no-protein control; reading: higher = stronger binding; quantity: RBNS enrichment (R)
Target: RNA binding protein fox-1 homolog 2, RRM domain, GST-SBP tag (RBFOX2, Homo sapiens, UniProt O43251-10, residues 100-194)
Setting: natural RNA segment, single round, ends assumed
Residues (chain): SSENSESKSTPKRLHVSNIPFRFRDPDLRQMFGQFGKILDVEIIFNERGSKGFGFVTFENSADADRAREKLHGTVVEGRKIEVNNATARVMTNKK
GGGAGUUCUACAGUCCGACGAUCAGUAGUAGUAGUAGUAGUAGUAGUUCCAUGUAGGGGCAGGAUCCUUUGGAAAAGUACCGUAUGUUCCUAGACCCCUUCCUUCCUUCCUUCCUUCCUUCCUUCUUUCCUUCUGGAAUUCUCGGGUGCCAA: 0.864
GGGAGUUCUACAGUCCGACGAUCAGUUCUAUCAGUAUUUAUGUUGAAAUUUCUAACAUGGAUUCUAGUCUCUAUUCUGUUAAUUUAAUUUUAAAUGCUUUAUCCAUUUGUGCAAAGGUAAACACAGAUUGUAUUGGAAUUCUCGGGUGCCAA: 0.942
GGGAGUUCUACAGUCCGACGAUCGCCAAGUGUUCUGCUUGCAUUUGCUUGGCUCUGGUACCAAAUAGUUGGGAUUCUUGAUGAAAUCCCCUGCCCCGCGUGCGUGUCAGUGCAGAUCCUGCGCACCACGCCCCUGGAAUUCUCGGGUGCCAA: 0.424
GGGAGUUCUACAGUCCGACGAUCUUUGCAUCCUUUAUUUUUAAUAUUCAUAAUGUCGUGUGCUUAAAAGUGGGCUUUGAAGUGUGUGCUGCUUACUCCUUUCAUCUUUCUCCCCGCUUCCCCAGUCUUUAAACUGGAAUUCUCGGGUGCCAA: 0.502
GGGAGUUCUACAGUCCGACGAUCACACCUGUAGCACUUACUGGUAGGACCAAGCAUCUUGGGGGGGUGGCCGCUGAGUGGCAGGGGACAGGAGUCCACUUUGUUUCGUGGGGAGGUCUAAUCUAGAUAUCGACUGGAAUUCUCGGGUGCCAA: 1.62
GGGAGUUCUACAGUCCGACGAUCUUUUCAGGCAUGGGGUCAAAGCUAGAGGUAUGGGCCGUCUACACCCCCCCGCCCCCCGGCAUCUAGUGUACCUCACCAGAGGGUAUUCGGAGGCCCAGCAUCCUGCAACCUGGAAUUCUCGGGUGCCAA: 0.955
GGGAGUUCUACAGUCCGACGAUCCAAAAGAGCUCUGGCCCGCAUCUCGCUGUGCCCUGAAGGGGGAUGAAGGGCGAUGCCUCGCCCGAGGCUUUGGGCUGCUGCACUGCAUGCUGGGACUGCUCCUACUCUCUUGGAAUUCUCGGGUGCCAA: 5.73
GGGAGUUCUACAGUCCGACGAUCUAGGGUGCCCACAGCCUCUUUUGCAGAGGUCUGACUGGGAGGGCCCUGGCAGCCAUGUUUAGGAAACACAGUAUACCCACUCCCUGCACCACCAGACACGUGCCCACAUCUGGAAUUCUCGGGUGCCAA: 0.319
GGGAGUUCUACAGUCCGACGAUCGUCUGCCUCUCAUGUGUGACCCCAAGGCAGCCAGGCUGUCACUGCUGCUGUCACAGGCUGACACCUUACAGAUGUCCUGACCAUGGGUGACCCUCCUCGGAGCGUCCAGAUGGAAUUCUCGGGUGCCAA: 0.202
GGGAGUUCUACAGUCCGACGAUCAGCUGUCCCCCUCCCACCCUACACAGUAGCUGGUCAGGGCUGAGUACAGUCCUGGGGGUAAGGGGAUGACAUGCCCAGGUGUCAGCUCAAAGGAUCUCUGCAUCAUCUUGUGGAAUUCUCGGGUGCCAA: 0.387
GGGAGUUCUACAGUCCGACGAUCCUCUUAGAACAACACACAGAAGAAUUGGUCCAGUUAAGUGCAUGCAAAAAGCCACCAAAUGAAGGGAUUCUAUCCAGCAAGAUCCUGUCCAAGAGUAGCCUGUGGAAUCUUGGAAUUCUCGGGUGCCAA: 17.3
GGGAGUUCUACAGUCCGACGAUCGUUCUGUGGGGCACUGGGUGAUACUCAGUUUCUUGUUCCUGGCCGUGGAGAGGGGCCUGGGGCACUGGUUCCGGCUGUGUCUGGUGGUCUGGCUGCGGGGAAGGGGCAAGUGGAAUUCUCGGGUGCCAA: 0.269

Series 3 — target: CCNB3, cyclin fold, Cln2 fusion (human); method: yeast growth competition, sequencing; medium: yeast; setting: weak parent motif; reference: not given; reading: higher = stronger binding; quantity: normalised enrichment score
Starting sequence: PKMYT1 docking peptide (human); SFEPRNLLSLFED; partner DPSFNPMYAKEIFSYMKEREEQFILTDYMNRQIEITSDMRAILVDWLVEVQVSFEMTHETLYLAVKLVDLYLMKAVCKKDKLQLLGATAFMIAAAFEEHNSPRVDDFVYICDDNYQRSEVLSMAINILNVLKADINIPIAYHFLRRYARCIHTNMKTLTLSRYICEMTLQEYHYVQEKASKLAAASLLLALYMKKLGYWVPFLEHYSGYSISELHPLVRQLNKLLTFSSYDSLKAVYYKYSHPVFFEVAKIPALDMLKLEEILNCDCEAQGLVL
SNEPRNLLSLFED [F2N]: -0.103
SFETRNLLSLFED [P4T]: 0.451
SFEHRNLLSLFED [P4H]: 0.012
SFCPRNLLSLFED [E3C]: 0.571
SPEPRNLLSLFED [F2P]: 0.978
SFEPRDLLSLFED [N6D]: 0.471
SFHPRNLLSLFED [E3H]: 0.555
QFEPRNLLSLFED [S1Q]: 0.395
SFEPRNLISLFED [L8I]: 0.539
SFEPRNFLSLFED [L7F]: 0.63
SFDPRNLLSLFED [E3D]: 0.317
SFEPRNLLSLFAD [E12A]: 0.395

Series 4 — method: protein binding microarray; molecule type: double-stranded DNA, one strand shown; medium: in vitro; tested at: not given; reference: not given; reading: higher = stronger binding; quantity: E-score
Target: Histone acetyltransferase KAT6A, winged helix 2, GST fusion (KAT6A, Homo sapiens, UniProt Q92794, residues 85-181)
Setting: 8-mer, flanks averaged, mean of 2 arrays, mostly near background
Construct (chain): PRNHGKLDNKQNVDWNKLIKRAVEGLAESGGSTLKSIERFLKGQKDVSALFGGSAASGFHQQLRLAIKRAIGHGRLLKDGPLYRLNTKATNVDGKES
TTAGGAAA: 0.058
GCAATATA: -0.0491
TGAGTGCA: -0.0414
CATGGCCG: 0.087
GCACTCTA: -0.111
TCAATCCA: 0.00887
GCTCGGAA: 0.00709
AGGTGTCG: -0.103
CAACCCCC: -0.185
AAAGATAC: 0.0448
CCTTCGTA: -0.0267
AAACCAGC: 0.189
ATGATCTA: 0.145
CGTTCAGC: -0.0494
CAACGGCA: 0.046
TATCTCGA: -0.128
TAGTTCAA: -0.0162
ACACGGCT: 0.041
CCCCCGTA: -0.0895
CCCTACTA: -0.144
GCGCTGCA: 0.146
CCCTTAGA: -0.07
CTAGTGAA: -0.0268
CGCGACTC: 0.0616
CAACAAGG: 0.0884

Series 5 — target: BIRC6 UBC core domain (UniProt Q9NR09); method: yeast two-hybrid; medium: yeast; setting: mostly zero background; reference: not given; reading: higher = stronger interaction; quantity: lacZ reporter activity
B1: TRIM24 RING domain (UniProt O15164); chain EAARLNLLDTCAVCHQNIQSRAPKLLPCLHSFCQRCLPAPQRYLMLPAPMLGSAETPPPVPAPGSPVSGSSPFATQVGVIRCPVCSQECAERHII
B2: DTX4 RING domain (UniProt Q9Y2E6); chain QKVRHPPDEDCTICMERLTAPSGYKGPQPTVKPDLVGKLSRCGHVYHIYCLVAMYNNGNKDGSLQCPTCKTIYGVKTGTQ
B3: TRIM43 RING domain (UniProt Q96BQ3); chain FSHAFQKELTCVICLNYLVDPVTICCGHSFCRPCLCLSWEEAQSPANCPACREPSPKMDFKT
B4: TRIM5 RING domain (UniProt Q9C035); chain LREVKLSPEGQKVDHCARHGEKLLLFCQEDGKVICWLCERSQEHRGHHTFLTEEVAREYQVKL
B5: TRAF5 RING domain (UniProt O00463); chain FVERLEERYKCAFCHSVLHNPHQTGCGHRFCQHCILSLRELNTVPICPVDKEVIKSQEVFK
B6: NEURL1 RING domain (UniProt O76050); chain VTPGLGQWSDECTICYEHAVDTVIYTCGHMCLCYACGLRLKKALHACCPICRRPIKDIIKT
Residues (chain): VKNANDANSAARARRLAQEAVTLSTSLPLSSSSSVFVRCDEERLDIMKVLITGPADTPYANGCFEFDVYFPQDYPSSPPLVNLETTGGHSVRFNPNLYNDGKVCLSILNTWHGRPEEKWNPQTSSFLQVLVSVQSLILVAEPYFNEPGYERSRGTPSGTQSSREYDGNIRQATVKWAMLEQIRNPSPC
B1 (TRIM24 RING domain): 0
B2 (DTX4 RING domain): 0
B3 (TRIM43 RING domain): 0
DHGAVGQEMCCPICCSEYVKGEVATELPCHHYFHKPCVSIWLQKSGTCPVCRCMFPPPL (PJA1 RING domain (UniProt Q8NG27)): 0
VEPSEENSKDCVVCQNGTVNWVLLPCRHTCLCDGCVKYFQQCPMCRQFVQESFALC (CGRRF1 RING domain (UniProt Q99675)): 0
B4 (TRIM5 RING domain): 0
B5 (TRAF5 RING domain): 0
PAELEVQASECVVCLEREAQMIFLNCGHVCCCQQCCQPLRTCPLCRQDIAQRLRIY (LRSAM1 RING domain (UniProt Q6UWE0)): 0
FQGDVDEDLICPICSGVLEEPVQAPHCEHAFCNACITQWFSQQQTCPVDRSVVTVAHLRP (RNF41 RING domain (UniProt Q9H4P4)): 0
B6 (NEURL1 RING domain): 0

Repeated from above (series 4):
TGAGTGCA: -0.0414
CATGGCCG: 0.087
GCACTCTA: -0.111
TCAATCCA: 0.00887
GCTCGGAA: 0.00709
AGGTGTCG: -0.103
CAACCCCC: -0.185
AAAGATAC: 0.0448
CCTTCGTA: -0.0267
AAACCAGC: 0.189
ATGATCTA: 0.145
CGTTCAGC: -0.0494
CAACGGCA: 0.046
TATCTCGA: -0.128
